Experimental data gathered from unrelated publications.
Protocols differ between the studies behind these lines.
ppa: Inorganic pyrophosphatase (ppa, Escherichia coli, UniProt P0A7A9)
Chain of UniProt P0A7A9 (whole entry, looked up): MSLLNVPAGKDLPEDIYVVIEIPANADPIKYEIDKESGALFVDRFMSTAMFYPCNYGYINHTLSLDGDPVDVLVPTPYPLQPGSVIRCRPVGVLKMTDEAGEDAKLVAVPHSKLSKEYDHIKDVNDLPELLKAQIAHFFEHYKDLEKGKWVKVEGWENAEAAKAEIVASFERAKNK
TDP1: Tyrosyl-DNA phosphodiesterase 1 (TDP1, Homo sapiens, UniProt Q9NUW8)
Chain of UniProt Q9NUW8 (whole entry, looked up): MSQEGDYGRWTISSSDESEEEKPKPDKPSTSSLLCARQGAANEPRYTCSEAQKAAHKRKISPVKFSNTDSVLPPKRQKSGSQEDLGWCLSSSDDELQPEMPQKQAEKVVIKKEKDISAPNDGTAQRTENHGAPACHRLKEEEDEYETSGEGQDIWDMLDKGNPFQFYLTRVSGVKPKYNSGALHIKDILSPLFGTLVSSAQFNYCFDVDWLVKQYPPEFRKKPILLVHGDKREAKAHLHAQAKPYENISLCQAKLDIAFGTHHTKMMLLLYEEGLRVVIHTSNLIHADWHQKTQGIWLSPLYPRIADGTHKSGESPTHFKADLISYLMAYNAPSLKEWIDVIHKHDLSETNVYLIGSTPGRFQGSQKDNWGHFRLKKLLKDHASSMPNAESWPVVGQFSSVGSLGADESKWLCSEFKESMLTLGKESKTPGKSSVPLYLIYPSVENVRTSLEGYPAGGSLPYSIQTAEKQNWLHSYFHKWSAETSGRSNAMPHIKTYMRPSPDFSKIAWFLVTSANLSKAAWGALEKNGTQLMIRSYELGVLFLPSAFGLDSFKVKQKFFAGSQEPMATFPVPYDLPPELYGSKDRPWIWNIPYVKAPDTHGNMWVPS
Chain of UniProt P13945 (whole entry, looked up): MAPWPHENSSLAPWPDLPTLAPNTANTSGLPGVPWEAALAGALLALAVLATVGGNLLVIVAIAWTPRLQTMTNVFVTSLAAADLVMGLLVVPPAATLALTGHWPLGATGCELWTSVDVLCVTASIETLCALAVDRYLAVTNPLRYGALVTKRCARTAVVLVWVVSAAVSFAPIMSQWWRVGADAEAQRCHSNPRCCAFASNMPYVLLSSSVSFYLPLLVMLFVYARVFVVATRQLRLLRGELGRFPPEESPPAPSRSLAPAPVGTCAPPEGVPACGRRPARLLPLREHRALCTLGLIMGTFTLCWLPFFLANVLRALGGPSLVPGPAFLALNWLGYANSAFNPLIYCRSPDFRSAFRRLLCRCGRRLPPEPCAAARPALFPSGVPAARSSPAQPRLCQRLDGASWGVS
Chain of UniProt P41146 (whole entry, looked up): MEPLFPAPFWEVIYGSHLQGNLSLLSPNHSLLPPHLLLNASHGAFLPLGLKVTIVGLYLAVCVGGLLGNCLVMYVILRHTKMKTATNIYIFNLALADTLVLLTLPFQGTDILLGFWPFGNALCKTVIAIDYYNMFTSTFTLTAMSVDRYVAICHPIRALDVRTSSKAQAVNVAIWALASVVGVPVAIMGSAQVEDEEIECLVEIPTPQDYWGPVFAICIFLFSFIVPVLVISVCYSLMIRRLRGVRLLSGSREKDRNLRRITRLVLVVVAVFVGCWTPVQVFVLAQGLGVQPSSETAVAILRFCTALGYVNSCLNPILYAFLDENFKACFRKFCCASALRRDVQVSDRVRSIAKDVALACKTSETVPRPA

O=C1c2sc(-c3ccc(N4CCC(CO)CC4)nc3F)nc2CCN1c1cccnc1  inhibition (ADRB2 (Homo sapiens, UniProt P07550); ligand displacement, radioligand; 1 µM): 8%
COc1ccc(NC(=O)Nc2cc(C(C)(C)C)on2)cc1OC  inhibition (ppa; inhibitor, counter-screen, coupling enzyme alone; 30 µM): -8.2%
Cc1ncsc1-c1ccc(C(C)NC(=O)C2CC(O)CN2C(=O)C(NC(=O)CCCCCCCCCCN2CCCC(Nc3ncc(Cl)c(Nc4ccccc4S(=O)(=O)C(C)C)n3)C2)C(C)(C)C)cc1 (stereo not shown)  log2 fold change (22Rv1; RNA-seq, refers to: ZNF862 mRNA; concentration not given; baseline: DMSO): -2.38
O=C(NCCCN1CCC2(CC1)OCc1ccccc12)C1CCCN1Cc1ccccc1 (stereo not shown)  Ki (Nociceptin receptor (OPRL1, Homo sapiens, UniProt P41146)): 3.2 nM
N#CSc1sc(N)nc1-c1ccccc1  inhibition (Uncharacterized protein (Trypanosoma brucei brucei, UniProt Q386Q8); enzyme activity, inhibitor, coupled colorimetric; 30 µM, together with: E. coli pyrophosphatase coupling): 53.8%
O=C1c2sc(-c3ccc(N4CCC(F)C4)nc3F)nc2CCN1c1cccnc1 (stereo not shown)  inhibition (ADRB3 (Homo sapiens, UniProt P13945); ligand displacement, radioligand; 1 µM): -4%
COc1cccc(NC(=O)N2CCOc3ccccc32)c1  inhibition (ppa; inhibitor, counter-screen, coupling enzyme alone; 30 µM): -1%
Cc1nn(C)c2nc(Cl)c(C=NOCc3ccc(-c4nc5cc(-c6ccccc6)ccn5c4Nc4ccc(C(=O)O)cc4)cc3)cc12 (mixture of isomers)  inhibition (TDP1; enzyme activity, inhibitor; 100 µM, unpurified compound): 87.6%
COC1CN([C@H]2CC[C@H]([C@@]3(C)Oc4c(Cl)cc(C(=O)NCc5c(SC)cc(C)[nH]c5=O)c(C)c4O3)CC2)C1  log2 fold change (RNA-seq, refers to: MECOM; human, whole blood; dose not given, 24 h; baseline: pretreatment baseline): 7.09
COc1ccc2ccccc2c1C=NOCc1ccc2nc(-c3ccccc3)c(Nc3ccc(C(=O)O)cc3)n2c1 (mixture of isomers)  inhibition (TDP1; enzyme activity, inhibitor; 100 µM, unpurified compound): -23.6%
C=C1CC[C@H](OCCCNC(=O)CCOCCOCCOCCOCCOCCOCCOCCOCCOCCOCCOCCOCCOCCOCCOCCOCCOCCOCCOCCOCCOCCOCCOCCOCCOCCOCCOCCOCCOCCOCCOCCOCCOCCOCCOCCOCCNC(=O)CCN2C(=O)CC(SC[C@H](NC(=O)[C@H](Cc3ccccc3)NC(=O)[C@H](CC(N)=O)NC(=O)[C@H](Cc3c[nH]cn3)NC(=O)[C@@H](NC(=O)[C@H](CC(=O)O)NC(=O)[C@H](CCC(N)=O)NC(=O)[C@H](CC(C)C)NC(=O)[C@H](CCCCN)NC(=O)[C@H](CCCCN)NC(=O)[C@H](CCCNC(=N)N)NC(=O)[C@H](CC(C)C)NC(=O)[C@H](Cc3c[nH]c4ccccc34)NC(=O)[C@H](CCC(=O)O)NC(=O)[C@@H](NC(=O)[C@H](CCCNC(=N)N)NC(=O)[C@H](CCC(=O)O)NC(=O)[C@H](CCSC)NC(=O)[C@H](CO)NC(=O)[C@H](CC(N)=O)NC(=O)[C@H](CC(C)C)NC(=O)[C@H](Cc3c[nH]cn3)NC(=O)[C@H](CCCCN)NC(=O)CNC(=O)[C@H](CC(C)C)NC(=O)[C@H](CC(N)=O)NC(=O)[C@H](Cc3c[nH]cn3)NC(=O)[C@H](CCSC)NC(=O)[C@H](CC(C)C)NC(=O)[C@H](CCC(N)=O)NC(=O)[C@@H](NC(=O)[C@H](CCC(=O)O)NC(=O)[C@H](CO)NC(=O)[C@@H](NC(=O)[C@@H](N)CO)C(C)C)[C@@H](C)CC)C(C)C)C(C)C)C(=O)O)C2=O)C/C1=C/C=C1\CCC[C@]2(C)[C@@H]([C@H](C)CCCC(C)(C)O)CC[C@@H]12 (stereo partly shown)  AUC(0-t) (male cynomolgus monkey, plasma; intravenous, 0.02 mg/kg, single dose): 2590 ng·h/mL
O=C(O)c1ccc(Nc2c(-c3ccc(CON=Cc4cc(F)cc5c4OCOC5)cc3)nc3cc(-c4ccccc4)ccn23)cc1 (mixture of isomers)  inhibition (TDP1; enzyme activity, inhibitor; 100 µM, unpurified compound): 23.9%
CN(Cc1ccc(/C=C/C(=O)NO)cc1)CC12CC3CC(CC(C3)C1)C2  inhibition (alpha1 adrenoceptor; antagonist radioligand binding; 0.05 µM): -2%

Repeated from above:
COC1CN([C@H]2CC[C@H]([C@@]3(C)Oc4c(Cl)cc(C(=O)NCc5c(SC)cc(C)[nH]c5=O)c(C)c4O3)CC2)C1  log2 fold change (RNA-seq, refers to: MECOM; human, whole blood; dose not given, 24 h; baseline: pretreatment baseline): 7.09
